Measurements of several laboratories.
Each line is one published result; not all experiments were run side by side. Values joined by “and” are separate records of one study, mostly repeats; a detail may differ.

SMILES	assay	test system	setting	scale	measurement	value
Cc1nnc(-c2ccc(CC(=O)NCCCC[C@H](NC(=O)c3ccc(OCc4ccc(B(O)O)cc4)c(-c4nc5ccccc5c(=O)[nH]4)c3)C(=O)NCC(=O)NCC(=O)NCC(=O)N[C@@H](Cc3ccccc3)C(=O)N[C@@H](Cc3ccccc3)C(=O)O)cc2)nn1	UPLC-MS/MS	human serum	100 µM, 0.5 h, 37 °C	–	remaining compound	97.2%
C[C@@H](Oc1ccc2c(c1)[C@H]1CCN[C@@]1(C)CO2)c1ccccc1	HPLC	DPBS	10 µM, 4 h, with: CellROX Green 5 µM and tBHP 55 µM	–	remaining compound	96%
C=CCN1CCC23c4c5ccc(OC(=O)c6ccccc6)c4OC2C(=O)CCC3(O)C1C5 (stereo not shown)	–	rat plasma	0.5 h, no inhibitor	–	remaining compound	0%
Cc1cc(-c2ccc3ccccc3c2)nnc1NCCN1CCN(C)CC1	–	human liver microsomes	30 min	–	remaining compound	94.7%
C[C@H](NC(=O)CNC(=O)[C@@H]1CCCN1C(=O)[C@H](CO)NC(=O)CNC(=O)[C@H](CO)NC(=O)[C@H](C)NC(=O)[C@H](CC(N)=O)NC(=O)[C@H](C)NC(=O)[C@H](CO)NC(=O)[C@H](C)NC(=O)[C@H](CO)NC(=O)[C@@H]1CCCN1C(=O)[C@H](Cc1ccccc1)NC(=O)[C@H](C)NC(=O)[C@H](CO)NC(=O)[C@@H]1CCCN1C(=O)[C@H](Cc1ccccc1)NC(=O)[C@@H](NC(=O)[C@H](CC(=O)O)NC(=O)[C@@H](N)CO)[C@@H](C)O)C(=O)N[C@@H](CCCNC(=N)N)C(=O)N[C@@H](CO)C(=O)O	–	CHO-K1 culture medium	40 min	–	remaining peptide	1.02%
CCCCCCCCCCCC(=O)C(C)C(=O)N1CCC[C@H]1C(=O)NC(C)(C)C(=O)NC(C)(C)C(=O)NC(C)(C)C(=O)N[C@](C)(CC)C(=O)NCCC(=O)N[C@@H](C)C(=O)N[C@](C)(CC)C(=O)N[C@@H](C)C(=O)N[C@@H](CC(C)C)C(=O)N[C@](C)(CC)C(=O)NCCC(=O)N[C@@H](C)C(=O)N[C@](C)(CC)C(=O)NCCC(=O)N[C@@H](C)C(=O)NC(C)(C)C(=O)NC(C)(C)C(=O)NC(C)(C)C(=O)N[C@@H](C)C(=O)N[C@@H](CC(=O)O)C(=O)O (stereo partly shown)	LC-MS	50% pooled human serum	40 µM, 10 min, pH 7.5, 37 °C	relative to: 0 h	remaining intact peptide	65.4% and 71.9% and 75.3%
C#Cc1c(F)ccc2cc(O)cc(-c3ncc4c(N5CC6CCC(C5)N6C(=O)OC(C)OC(=O)CC56CC7CC(CC(C7)C5)C6)nc(OC[C@@]56CCCN5C[C@H](F)C6)nc4c3F)c12 (stereo partly shown)	–	simulated gastric fluid	1 µM, 30 min, 37 °C	–	remaining prodrug	112%
C=CCN1CCC23c4c5ccc(OC(=O)c6ccc(N)cc6)c4OC2C(=O)CCC3(O)C1C5 (stereo not shown)	–	rat plasma	0.5 h, with: digitonin 100 µM	–	remaining compound	3.2% and 3.6%
C#Cc1c(F)ccc2cc(O)cc(-c3ncc4c(N5CC6CCC(C5)N6C(=O)OC(C)OC(=O)CC)nc(OC[C@@]56CCCN5C[C@H](F)C6)nc4c3F)c12 (stereo partly shown)	–	simulated gastric fluid	1 µM, 30 min, 37 °C	–	remaining prodrug	95.9%
CC[C@H](C)[C@H](NC(=O)[C@@H](NC(=O)[C@H](CCCCN)NC(=O)[C@@H](NC(=O)[C@@H]1CCCN1[C@@H]1CN(C(=O)[C@@H](NC(=O)[C@@H](NC(=O)[C@@H](NC(=O)[C@@H](NC(=O)[C@@H](NC(=O)[C@@H](N)CCCCN)C(C)C)C(C)C)C(C)C)[C@@H](C)CC)[C@@H](C)O)CC[C@H]1NS(=O)(=O)c1ccc(C)cc1)[C@@H](C)O)C(C)C)C(=O)N[C@@H](CC(C)C)C(=O)N[C@@H](Cc1c[nH]cn1)C(N)=O	LC-MS	pronase digest	200 µM, 1 h, pH 7.5, 37 °C, with: pronase 2.5 µg/mL	–	remaining intact peptide	100%

Some of these lines once more:
SMILES	assay	test system	setting	scale	measurement	value
Cc1nnc(-c2ccc(CC(=O)NCCCC[C@H](NC(=O)c3ccc(OCc4ccc(B(O)O)cc4)c(-c4nc5ccccc5c(=O)[nH]4)c3)C(=O)NCC(=O)NCC(=O)NCC(=O)N[C@@H](Cc3ccccc3)C(=O)N[C@@H](Cc3ccccc3)C(=O)O)cc2)nn1	UPLC-MS/MS	human serum	100 µM, 0.5 h, 37 °C	–	remaining compound	97.2%
